Experimental data of several laboratories.
Each numbered part is a random draw from the data of one study; scales do not carry over between parts. Substitutions count along the parent as printed.

Block 1 — method: protein-binding microarray; molecule type: double-stranded DNA, one strand shown; matrix: in vitro; tested at: 2540 nM top; notes: 60-bp whole probe; with: salmon DNA 0.4 mg/ml; relative to: random background probes; direction: higher = stronger binding; all sequences stand within: GCCTAGCAC … GTCTTGATTCGCTTGACGCTGCTG
Target: Interferon regulatory factor 3, full length, phosphomimetic (IRF3, Homo sapiens, UniProt Q14653, residues 1-427, S386D/S396D/S398D/S402D/T404D/S405D)
Residues (chain): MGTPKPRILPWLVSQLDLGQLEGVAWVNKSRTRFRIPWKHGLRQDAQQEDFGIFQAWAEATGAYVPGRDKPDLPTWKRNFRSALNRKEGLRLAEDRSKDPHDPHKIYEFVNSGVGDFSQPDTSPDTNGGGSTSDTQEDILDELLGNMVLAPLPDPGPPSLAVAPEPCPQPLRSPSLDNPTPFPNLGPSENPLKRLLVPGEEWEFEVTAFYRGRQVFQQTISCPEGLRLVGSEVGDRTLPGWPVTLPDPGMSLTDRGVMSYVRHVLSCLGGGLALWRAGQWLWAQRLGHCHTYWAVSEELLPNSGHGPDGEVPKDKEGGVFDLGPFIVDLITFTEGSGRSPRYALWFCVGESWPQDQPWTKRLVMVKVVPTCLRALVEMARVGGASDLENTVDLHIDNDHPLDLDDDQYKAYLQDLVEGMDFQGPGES
Sequence	fitted relative affinity [z-score]
TTAGAACTGAGTTTCGAATAGTGCTAG	1.58
TTAGGTTTCGGCCTGGGTTAGTGCTAG	2.49
CTAGATATCGGGTTTCGATTAGTGCTA	2.12
GACGAAATCGGGTATCGAGACGTGCTA	0.231
TTTTTTATCAATCATTTTAGTGTGCTA	1.44
GACGGTATCCTACTGCTGCCGTGCTAG	2.44
TTGGGTCTCGGTATCGGTTAGTGCTAG	1.9
GACGAACTGGGACTGGAGACGTGCTAG	-0.362
TTAGAACTGAGGCTCGATTAGTGCTAG	-0.804
TTAGATCCCAGTATCGATTAGTGCTAG	1.32
TTAGATATCAGTTGCGATTAGTGCTAG	1.04
AGCCAGGCAACCTATGGCCTGTGCTAG	-1.35
TTAGTTTTCAGTTCCGATTAGTGCTAG	4.63
GACGGTATCGGGATTGGGGACGTGCTA	1.91
GACTGACTGCTTCTCCTGACGTGCTAG	-0.399
TTAGATATAAGTTTCGATTAGTGCTAG	3.08
GACGGTATAGGGACTGGGGACGTGCTA	-0.621
GACGATTTCGGGACTGCAGACGTGCTA	1.94
CCCACCCTCAGGGAGCCTGTGTGCTAG	-0.106
AGAGCTATCACTATTCTAGGGTGCTAG	0.535
GACGACCTGAGTATCGAGACGTGCTAG	-0.336

Block 2 — method: universal PBM; molecule type: double-stranded DNA, one strand shown; matrix: in vitro; tested at: 600 nM; direction: higher = stronger binding
Target: Sal-like protein 4, full length isoform A (SALL4, Homo sapiens, UniProt Q9UJQ4, residues 1-1053)
Chain of UniProt Q9UJQ4 (whole entry, looked up): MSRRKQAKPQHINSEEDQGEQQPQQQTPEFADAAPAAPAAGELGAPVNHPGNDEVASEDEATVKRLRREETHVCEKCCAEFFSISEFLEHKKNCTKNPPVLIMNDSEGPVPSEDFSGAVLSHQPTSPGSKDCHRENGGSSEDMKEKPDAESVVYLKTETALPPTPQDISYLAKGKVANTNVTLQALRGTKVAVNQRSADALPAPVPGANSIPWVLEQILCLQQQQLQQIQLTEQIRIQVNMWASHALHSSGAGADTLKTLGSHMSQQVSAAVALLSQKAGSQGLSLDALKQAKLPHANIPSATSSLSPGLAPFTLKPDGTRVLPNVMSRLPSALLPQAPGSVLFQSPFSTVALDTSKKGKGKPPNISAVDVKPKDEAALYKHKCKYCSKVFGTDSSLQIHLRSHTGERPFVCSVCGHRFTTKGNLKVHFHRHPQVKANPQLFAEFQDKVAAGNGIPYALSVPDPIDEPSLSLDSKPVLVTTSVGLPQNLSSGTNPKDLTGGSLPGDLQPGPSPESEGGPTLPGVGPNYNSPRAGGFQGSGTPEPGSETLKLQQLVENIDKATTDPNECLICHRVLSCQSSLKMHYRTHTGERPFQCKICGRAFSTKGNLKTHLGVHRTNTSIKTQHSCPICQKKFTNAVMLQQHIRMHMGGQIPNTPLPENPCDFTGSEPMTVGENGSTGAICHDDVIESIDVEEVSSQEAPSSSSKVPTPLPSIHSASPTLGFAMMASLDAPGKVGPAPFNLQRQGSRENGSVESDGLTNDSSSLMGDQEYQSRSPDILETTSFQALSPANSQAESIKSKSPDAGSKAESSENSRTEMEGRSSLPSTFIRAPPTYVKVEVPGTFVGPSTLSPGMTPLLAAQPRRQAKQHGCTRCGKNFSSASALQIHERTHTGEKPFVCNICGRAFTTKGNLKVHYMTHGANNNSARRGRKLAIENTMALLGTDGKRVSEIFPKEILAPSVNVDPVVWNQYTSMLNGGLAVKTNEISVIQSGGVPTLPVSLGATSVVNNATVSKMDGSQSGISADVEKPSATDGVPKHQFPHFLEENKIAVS
Notes: 8-mer, flanks averaged, mean of replicates
Sequence	E-score
GGGCGCGA	-0.342
ACTGGATA	0.158
GAATCGCC	-0.233
AGCAAGAG	-0.0887
TAGGCTAA	-0.129
AGGTCAAG	-0.113
CACCAGAC	-0.224
CGTAGTAG	-0.0299
CCGGTGAA	-0.108
CGCCACCA	-0.254
CTGCTCCA	-0.0931
GATGCCAC	-0.278
ACCAGAAC	-0.0982
CCTTCCCC	-0.283
AGTTATGA	0.41
CCATTCAG	0.117
CGCGATAA	0.148
CAGTGCTC	-0.0767
AGATTTAT	0.308
ATGCTGCC	-0.068
ATTTCATA	0.368
AAAAATAA	0.397
CTCTAGCA	-0.0462

Block 3 — target: CCNA2, cyclin fold, Cln2 fusion (human); method: yeast growth competition, sequencing; matrix: yeast; notes: strong parent motif; relative to: not given; direction: higher = stronger binding
Parent: CDC25A docking peptide (human); PPHRRRLLFACSP
Variant	normalised enrichment score
PPHRRRLLFACWP [S12W]	2.41
PPHRRRLLKACSP [F9K]	1.61
PPHRRRLLFACSV [P13V]	1.88
PPVRRRLLFACSP [H3V]	5.55
PPHRRRLLFACSH [P13H]	2.09
PPHRRRLLIACSP [F9I]	0.788
PPHRRRLLGACSP [F9G]	1.12
PPHRRRLLFAKSP [C11K]	1.95
PPHRVRLLFACSP [R5V]	1.71
PPHRRRLLFICSP [A10I]	1.67
PPHRRRYLFACSP [L7Y]	1.38
PTHRRRLLFACSP [P2T]	3.41
PPHRRKLLFACSP [R6K]	2.24
PPHRRRLLRACSP [F9R]	1.7
PPHWRRLLFACSP [R4W]	1.75
PPHRRGLLFACSP [R6G]	0.32
PPHRRRLLFDCSP [A10D]	4.43
PPHRRRLMFACSP [L8M]	2.22
PLHRRRLLFACSP [P2L]	1.72
PPHRRRKLFACSP [L7K]	2.05

Block 4 — method: RNA Bind-n-Seq; molecule type: RNA; matrix: in vitro; tested at: not given; notes: RNA with constant flanks, ends assumed; relative to: input RNA pool; direction: higher = stronger binding
Target: RING finger protein unkempt homolog, zinc fingers 1-6, GST-SBP tag (UNK, Homo sapiens, UniProt Q9C0B0, residues 30-357)
All sequences stand within: GGGAGUUCUACAGUCCGACGAUC … CAACAGAGGAUUGAGCAUCA
Construct (chain): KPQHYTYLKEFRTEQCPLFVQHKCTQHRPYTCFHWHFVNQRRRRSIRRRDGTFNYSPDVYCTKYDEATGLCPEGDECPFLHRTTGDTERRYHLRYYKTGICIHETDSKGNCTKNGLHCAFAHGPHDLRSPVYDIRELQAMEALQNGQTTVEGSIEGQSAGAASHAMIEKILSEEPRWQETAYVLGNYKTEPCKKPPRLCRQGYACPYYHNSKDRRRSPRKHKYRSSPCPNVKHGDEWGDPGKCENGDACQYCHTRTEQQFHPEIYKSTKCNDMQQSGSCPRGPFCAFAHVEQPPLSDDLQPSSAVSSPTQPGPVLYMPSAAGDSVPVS
Sequence	bound/input enrichment [ratio]
GCUGGUCAUCCUCUGGCCCAGAAUGAACGUUGUCUUCACAUGUUUUUACAGGAUGAAAUUACCGAUAAAAGCUAUACUCCAUCUAAAAUAAGACAUGCCUGAGUUUGGUGAGAAGAAGCA	0.266
AAAGGAGAAUCUGGCCAGUCAUGGCCAAGGUUAACAAAAGAAAGGGCAAAGCUUAAUUGGCUCCGUGUCGACUUCAAUAAUUGGAAAGACUGGGAAGAUGAUUCAGAUGAAGACAUGUCU	0.236
GAGACCUUUUCCAGUUAUAUCAGCGUUCAUAAUGAUAGCAAUCAAGUUGUAAAAGACAUAUCCGUAAAAGCUGAUCUUCAGACAAGUUCUCAGCGUUUAAAUCUUUCAGCCUCCAAUGCU	0.37
UCCGGGCAGAAUGAGGAGUCUCCUCGGAAACGAAAAAAGGCCACGGAAGCCAUAGACUCUCUCCGGAAAUCUAAACGUCUUCGGAAUAGAAAGUAAAUUGGAAUGUGGUUCUAGUUCCAG	0.58
UUCCUGACCCGGCCUAAGGUCCCUGUCUUGCAGCUGGAUAGCGGCAACUACCUCUUCUCCACCCGUGCAAUCUGCCGAUAUUUUUUUUUGUUAUCUGGCUGGGAGCAAGAUGACCUCACU	0.397
AUCUUAUUACAGGGACUUGCUGUGCUUGCCAAGGAAAGACCACCAAAUCCCAUCGAGUUCCCCGCAUCUUAUCUUUUAAAAAACAAGGCGCAGUUUGAAGAUCGAAAUUGAUUUCUUGGG	0.225
AUGGCCAAUGUGCUUUGUAACAGAGCCAGACUGGUUUCCUAUCUCCCAGGAUUUUGCUCUUCCGUUAAAAGGGUUGUCAAUCCCAAAGCCUUUUCGACUGCAGGAUCAUCAGGUUCGGAU	0.077
GCUACUUUAACCUAUGAUAAUUAUUUACAAAAUUUUAACACUAACCAAACAAUGCAGAUCUCCGGGAUGAUUAAAGGCAGCAUUUGAUGAUAGCAGACAUUGUUACAAGGACAUGGUGAG	15.1
GGCAGGCCAGCACCUGGCUCAGUGUCAGUCUAUUUAUCAGAGGUGUAAAUAAUCCACACACCGUUUUUCUCCUUUUAGAUUAUUUUGUAUUUGUUUAAAAAAUAUUUGUCAAAAUACAAA	2.99
UCAGACAUCUACGUGUGCAUGAUCUCCUAUGCACACAACGUGGCGGCCCAGGGCAAGUACACCGCUAUUGCCAGCACUACUGUGGAGACCACGGACCCUGAAAAGGAGGUGGAGCCGGCU	0.0604
CCAAAUGGAUUGCUUCUGACUCCGAGUCCACUGCUCUCCAGCAUACAUUUCUGGAGCAGCCUCCGUCCAGUUGCUCCGCUGAGUCCUGCCAGGCUGCAAGGGCCAAGCACGCUGUUCCAG	0.051

Block 5 — target: CREBZF, bZIP domain (human); method: DHFR protein complementation; matrix: yeast; relative to: wild-type JUN-FOS pair; direction: higher = stronger binding
Notes: single substitutions, most at no-binding floor
Parent: JUN, bZIP domain (human); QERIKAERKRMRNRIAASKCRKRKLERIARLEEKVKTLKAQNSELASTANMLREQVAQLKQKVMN; partner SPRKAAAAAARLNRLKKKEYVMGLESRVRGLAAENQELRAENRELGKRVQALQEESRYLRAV
Variant	binding fitness [natural log]
E44S	-1.53
A29L	-1.51
A40R	-1.44
E44A	-1.53
R30E	-1.42
L52I	-1.48
R30V	-1.3
A46T	-1.39
E33G	-1.48
R30C	-1.55
V56L	-1.38
M51P	-1.49
L38F	-1.54
A40E	-1.58
S47F	-1.44
Q55A	-1.25
N42T	-1.52
E32R	-1.26
E54R	-1.43
L38Q	-1.5
L45N	-1.45
L31F	-1.5
E33T	-1.51
Q55P	-1.49
E54L	-1.38

Block 6 — method: protein binding microarray; molecule type: double-stranded DNA, one strand shown; matrix: in vitro; tested at: not given; relative to: not given; direction: higher = stronger binding
Target: Histone acetyltransferase KAT6A, winged helix 2, GST fusion (KAT6A, Homo sapiens, UniProt Q92794, residues 85-181)
Notes: 8-mer, flanks averaged, mean of 2 arrays, mostly near background
Residues (chain): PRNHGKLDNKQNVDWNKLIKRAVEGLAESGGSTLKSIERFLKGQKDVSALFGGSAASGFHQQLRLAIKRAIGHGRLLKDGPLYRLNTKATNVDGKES
Sequence	E-score
AAAGTGGT	-0.0968
AGAATGCT	-0.0363
CGCAACTA	0.0254
AAGCCACG	-0.116
CGAGCACC	0.05
ACGTAGAG	-0.281
CATGCGGA	0.0799
AACCTAAG	-0.113
ACCGTGTA	-0.189
ATGCCAGC	0.0643
ACTGGCCC	0.242
AAGATGAG	-0.093
ATTTCATG	-0.0278
GTCTCGCA	0.141
ACAATAGT	-0.000845
AGTCATGG	-0.226
AATCTCCC	-0.0411
CTCTTCGA	0.0541
CCCGACCA	0.151
AACGTAAG	-0.125
ACACTGTC	-0.0752
CGCGCGCA	0.195
AAGCAGAT	0.151
AGTTCGGC	0.0532
CGCAACAC	0.119
